# Measurements gathered from unrelated publications.
# Each line is one published result; not all experiments were run side by side. “And” joins repeats or separate records; there may be more than shown. ± gives the spread as reported.
# Uncharacterized hydrolase SAUSA300_2518: Uncharacterized hydrolase SAUSA300_2518 (Staphylococcus aureus, UniProt Q2FDS6)
# UniProt Q2FDS6, sequence (whole entry, looked up): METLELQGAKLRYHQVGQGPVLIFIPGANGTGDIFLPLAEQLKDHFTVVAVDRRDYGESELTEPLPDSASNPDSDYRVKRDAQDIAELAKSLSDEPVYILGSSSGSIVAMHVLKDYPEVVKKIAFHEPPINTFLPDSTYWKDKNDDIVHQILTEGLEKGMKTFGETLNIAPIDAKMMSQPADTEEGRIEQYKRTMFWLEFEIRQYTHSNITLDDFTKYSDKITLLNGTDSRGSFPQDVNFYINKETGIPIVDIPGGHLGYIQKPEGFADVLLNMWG
# lasR: Transcriptional activator protein LasR (lasR, Pseudomonas aeruginosa, UniProt P25084)
# UniProt P25084, sequence (whole entry, looked up): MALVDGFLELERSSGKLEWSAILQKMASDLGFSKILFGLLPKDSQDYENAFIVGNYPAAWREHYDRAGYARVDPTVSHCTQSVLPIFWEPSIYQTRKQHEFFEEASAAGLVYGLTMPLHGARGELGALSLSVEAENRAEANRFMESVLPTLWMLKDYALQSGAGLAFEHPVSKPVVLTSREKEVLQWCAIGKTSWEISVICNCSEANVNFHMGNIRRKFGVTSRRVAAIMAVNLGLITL
# KEAP1: Kelch-like ECH-associated protein 1 (KEAP1, Homo sapiens, UniProt Q14145)
# UniProt Q14145, sequence (whole entry, looked up): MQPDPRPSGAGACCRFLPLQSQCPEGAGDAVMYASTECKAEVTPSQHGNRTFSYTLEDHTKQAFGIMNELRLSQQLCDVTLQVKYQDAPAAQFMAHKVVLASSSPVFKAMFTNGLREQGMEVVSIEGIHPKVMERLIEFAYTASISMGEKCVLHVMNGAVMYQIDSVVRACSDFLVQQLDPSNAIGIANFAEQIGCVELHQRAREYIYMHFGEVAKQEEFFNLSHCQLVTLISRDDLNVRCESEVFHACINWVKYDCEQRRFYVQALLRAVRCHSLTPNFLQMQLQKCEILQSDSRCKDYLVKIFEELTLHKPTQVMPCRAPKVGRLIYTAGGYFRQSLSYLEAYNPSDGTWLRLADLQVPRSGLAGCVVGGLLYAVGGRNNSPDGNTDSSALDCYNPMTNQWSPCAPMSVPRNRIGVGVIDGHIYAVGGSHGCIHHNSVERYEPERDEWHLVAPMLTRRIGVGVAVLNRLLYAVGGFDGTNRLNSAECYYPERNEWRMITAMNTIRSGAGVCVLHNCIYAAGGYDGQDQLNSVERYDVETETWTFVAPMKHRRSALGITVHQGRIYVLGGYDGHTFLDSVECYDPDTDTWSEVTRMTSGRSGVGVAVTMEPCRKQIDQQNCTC
# Oprm1: Mu-type opioid receptor (Oprm1, Rattus norvegicus, UniProt P33535)
# UniProt P33535, sequence (whole entry, looked up): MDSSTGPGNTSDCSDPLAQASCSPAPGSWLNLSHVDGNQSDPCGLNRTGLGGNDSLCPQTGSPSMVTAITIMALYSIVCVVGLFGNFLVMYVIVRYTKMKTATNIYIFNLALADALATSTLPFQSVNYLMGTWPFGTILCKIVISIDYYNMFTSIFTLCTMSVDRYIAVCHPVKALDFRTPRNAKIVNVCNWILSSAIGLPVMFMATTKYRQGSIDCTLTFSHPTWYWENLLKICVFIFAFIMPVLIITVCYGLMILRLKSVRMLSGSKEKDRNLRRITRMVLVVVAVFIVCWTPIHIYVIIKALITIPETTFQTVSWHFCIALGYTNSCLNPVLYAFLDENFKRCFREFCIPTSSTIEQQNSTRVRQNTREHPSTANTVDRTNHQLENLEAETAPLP
# sdiA: Regulatory protein SdiA (sdiA, Escherichia coli, UniProt P07026)
# UniProt A5GZW8, sequence (whole entry, looked up): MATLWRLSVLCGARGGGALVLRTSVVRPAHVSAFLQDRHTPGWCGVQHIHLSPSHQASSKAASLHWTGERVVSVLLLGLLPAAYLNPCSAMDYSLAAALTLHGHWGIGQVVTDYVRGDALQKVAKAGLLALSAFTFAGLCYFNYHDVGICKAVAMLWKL
# UniProt Q91V12, sequence (whole entry, looked up): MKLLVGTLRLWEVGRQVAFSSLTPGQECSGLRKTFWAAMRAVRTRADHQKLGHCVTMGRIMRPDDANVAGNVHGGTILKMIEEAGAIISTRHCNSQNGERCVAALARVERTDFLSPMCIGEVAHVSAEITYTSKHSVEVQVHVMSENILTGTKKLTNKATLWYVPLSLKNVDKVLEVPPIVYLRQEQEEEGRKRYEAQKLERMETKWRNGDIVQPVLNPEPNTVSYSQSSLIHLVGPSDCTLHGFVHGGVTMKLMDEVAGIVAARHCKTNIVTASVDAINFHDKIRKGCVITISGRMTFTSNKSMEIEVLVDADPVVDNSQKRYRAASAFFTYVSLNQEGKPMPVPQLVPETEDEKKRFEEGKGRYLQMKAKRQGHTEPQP
# UniProt Q91ZH7, sequence (whole entry, looked up): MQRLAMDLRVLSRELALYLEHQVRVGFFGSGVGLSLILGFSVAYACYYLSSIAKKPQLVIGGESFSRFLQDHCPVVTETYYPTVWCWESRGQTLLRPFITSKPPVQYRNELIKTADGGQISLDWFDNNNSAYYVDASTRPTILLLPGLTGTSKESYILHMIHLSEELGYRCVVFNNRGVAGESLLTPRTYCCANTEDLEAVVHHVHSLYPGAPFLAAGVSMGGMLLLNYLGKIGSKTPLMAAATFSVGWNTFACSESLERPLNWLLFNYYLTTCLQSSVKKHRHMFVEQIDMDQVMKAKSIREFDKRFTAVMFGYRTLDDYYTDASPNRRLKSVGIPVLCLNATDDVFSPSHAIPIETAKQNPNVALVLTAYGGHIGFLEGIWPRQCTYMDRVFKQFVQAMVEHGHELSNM
# UniProt D0VWV4, sequence (whole entry, looked up): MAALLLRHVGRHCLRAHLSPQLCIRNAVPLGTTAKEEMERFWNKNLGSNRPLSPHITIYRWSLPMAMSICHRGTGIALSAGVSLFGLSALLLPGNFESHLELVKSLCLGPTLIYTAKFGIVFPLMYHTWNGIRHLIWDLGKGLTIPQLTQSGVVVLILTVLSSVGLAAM
# UniProt Q007T0, sequence (whole entry, looked up): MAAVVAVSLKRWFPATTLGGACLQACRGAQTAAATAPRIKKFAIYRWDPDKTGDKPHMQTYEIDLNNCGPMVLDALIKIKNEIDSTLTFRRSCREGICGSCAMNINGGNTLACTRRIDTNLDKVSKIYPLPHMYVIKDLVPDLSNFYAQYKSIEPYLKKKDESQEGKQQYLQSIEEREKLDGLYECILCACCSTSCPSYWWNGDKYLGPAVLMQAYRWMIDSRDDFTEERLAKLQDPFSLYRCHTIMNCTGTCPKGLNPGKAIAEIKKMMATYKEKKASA
# UniProt Q9ULW8, sequence (whole entry, looked up): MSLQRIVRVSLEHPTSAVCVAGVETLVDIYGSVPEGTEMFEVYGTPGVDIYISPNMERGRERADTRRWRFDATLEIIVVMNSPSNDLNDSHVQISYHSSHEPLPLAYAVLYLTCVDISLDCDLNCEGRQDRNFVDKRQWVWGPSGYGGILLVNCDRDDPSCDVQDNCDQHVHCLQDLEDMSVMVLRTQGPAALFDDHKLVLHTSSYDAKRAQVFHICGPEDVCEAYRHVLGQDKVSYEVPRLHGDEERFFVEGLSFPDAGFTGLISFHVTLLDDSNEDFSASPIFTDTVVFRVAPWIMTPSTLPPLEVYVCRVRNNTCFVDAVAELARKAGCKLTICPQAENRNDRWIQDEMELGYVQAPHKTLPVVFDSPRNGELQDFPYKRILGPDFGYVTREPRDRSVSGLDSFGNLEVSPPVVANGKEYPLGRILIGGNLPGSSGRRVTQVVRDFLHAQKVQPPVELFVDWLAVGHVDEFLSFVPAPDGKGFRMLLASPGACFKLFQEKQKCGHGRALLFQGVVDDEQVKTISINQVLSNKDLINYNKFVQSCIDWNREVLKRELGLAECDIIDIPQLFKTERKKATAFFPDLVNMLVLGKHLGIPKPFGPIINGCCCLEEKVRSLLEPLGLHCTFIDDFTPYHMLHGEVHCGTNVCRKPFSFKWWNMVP
# UniProt P07026, sequence (whole entry, looked up): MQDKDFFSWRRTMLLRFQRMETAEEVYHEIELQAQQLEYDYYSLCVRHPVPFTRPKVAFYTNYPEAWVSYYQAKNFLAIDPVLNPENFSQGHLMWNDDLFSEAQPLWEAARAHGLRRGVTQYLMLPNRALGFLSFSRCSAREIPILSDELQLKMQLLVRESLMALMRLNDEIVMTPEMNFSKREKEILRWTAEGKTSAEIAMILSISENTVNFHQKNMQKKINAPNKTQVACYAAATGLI
# UniProt Q6DWJ6, sequence (whole entry, looked up): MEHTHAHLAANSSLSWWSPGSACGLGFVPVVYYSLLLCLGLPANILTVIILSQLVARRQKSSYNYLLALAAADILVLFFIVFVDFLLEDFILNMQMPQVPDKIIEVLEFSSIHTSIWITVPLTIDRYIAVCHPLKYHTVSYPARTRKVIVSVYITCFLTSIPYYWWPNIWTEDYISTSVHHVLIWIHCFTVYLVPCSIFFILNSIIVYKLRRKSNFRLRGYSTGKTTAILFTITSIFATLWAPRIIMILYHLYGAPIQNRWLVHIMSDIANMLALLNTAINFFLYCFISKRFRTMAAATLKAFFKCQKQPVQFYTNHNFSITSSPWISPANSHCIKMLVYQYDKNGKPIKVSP
SMILES,target,test,system,conditions,scale,quantity,value
CC(C)C[C@@H](N)C(=O)NCC(=O)N[C@H](C)C(=O)N[C@H](CO)C(=O)N[C@H](Cc1c[nH]c2ccccc12)C(=O)N[C@H](Cc1c[nH]cn1)C(=O)N[C@H](CCCNC(=N)N)C(=O)N1CCC[C@@H]1C(=O)N[C@H](CC(=O)O)C(=O)N[C@H](CCCCN)C(=O)N[C@H](CCCCN)C(=O)N[C@H](CCCNC(=N)N)C(=O)NCCCCCC(=O)N[C@@H](CCCCN)C(=O)N[C@@H](CCCNC(=N)N)C(=O)N[C@@H](CCCCN)C(=O)N[C@@H](CCC(N)=O)C(=O)N[C@@H](CCCNC(=N)N)C(=O)NCC(=O)N1CCC[C@H]1C(=O)NCC(=O)N[C@@H](CCCNC(=N)N)C(=O)N[C@@H](C)C(=O)N[C@@H](Cc1ccccc1)C(N)=O,"CXCR4 (Homo sapiens, UniProt P61073)","chemotaxis, antagonist",SUP-T1,"10 µM, added: SDF-1alpha",,cell migration,inhibited
C[C@H](NCc1ccc(-c2ccc(C(F)(F)F)cc2)cc1)C(N)=O,"CSNK1D (Homo sapiens, UniProt P48730)","cell-free assay, competition with immobilised ligand",,1 µM,,inhibition,0%
N[C@H](C(=O)N1CCCC1)C1CCN(c2nccc3c(-c4ncc(Cl)cc4Cl)cccc23)CC1,"PADI3 (Homo sapiens, UniProt Q9ULW8)",enzyme activity,,"0.006291 µM, added: Ca2+ 0.25 mM",,kcat,0.105 s⁻¹ and 0.113 s⁻¹
CN(C)[C@H]1C[C@@]23CC[C@@]4(O2)C(=CC[C@]2(C)[C@@H](c5ccc6ccncc6c5)CC[C@H]24)C=C3[C@@H](O)[C@@H]1O,"BTK (Homo sapiens, UniProt Q06187)","ATP probe labelling, inhibitor, KiNativ profiling",,1 µM,,inhibition,-8.3%
CCOC(=O)[C@@H]1Cc2c(cc([N+](=O)[O-])cc2[N+](=O)[O-])[C@H](O)[C@]12C(=O)Nc1ccc(Br)cc12,"PDGFRA (Homo sapiens, UniProt P16234)","binding, competition with immobilised ligand",,0.1 µM,,remaining binding,100%
COc1ccc2nc3cc(Cl)ccc3c(Nc3cc(C(C)C)c(O)cc3C)c2c1,"Tumor susceptibility gene 101 protein (Homo sapiens, UniProt Q99816)",thermal stability,,800 µM,,ΔTm,8.1 °C
O=S(=O)(F)c1cccc2c1OCC2,Uncharacterized hydrolase SAUSA300_2518,"enzyme activity, inhibitor, fluorogenic substrate",,1 µM,,remaining activity,116%
CC[C@H](C)[C@H](NC(=O)[C@H](CCCNC(=N)N)NC(=O)[C@H](CCCNC(=N)N)NC(=O)[C@H](CC(C)C)NC(=O)[C@H](Cc1ccccc1)NC(=O)CNC(=O)CNC(=O)[C@@H](N)Cc1ccc(O)cc1)C(=O)N[C@@H](CCCNC(=N)N)C(=O)N1CCC[C@H]1C(=O)N[C@@H](CCCCN)C(=O)N[C@@H](CC(C)C)C(=O)N[C@@H](CCCCN)C(=O)O,"GPR139 (Homo sapiens, UniProt Q6DWJ6)","GαoA activation, agonist, BRET",HEK293T/17,40 µM,,Emax,92.2% and 91.9%
CCCCCCCCCC(=O)CC(=O)Nc1ccccc1,lasR,"reporter gene, antagonist","Escherichia coli, JLD271 with LasR plasmid","concentration not given, added: OdDHL 2 nM",,antagonist activity,inactive
COCC1CCCCN1C(=O)n1cc(C(O)(c2ccccc2)c2ccccc2)nn1 (centres unmarked),"Cytosolic acyl coenzyme A thioester hydrolase (Acot7, Mus musculus, UniProt Q91V12)","probe labelling, inhibitor, competitive ABPP-SILAC, item: Acot7",mouse T cells,"concentration not given, 4 h, single peptide","baseline: treated over DMSO cells, lower = stronger inhibition",SILAC activity ratio,1.49 and 1.31 and 1.48 and 1.47 and 1.59
CON(C(=O)c1cn(C)nc1C(F)F)C(C)Cc1c(Cl)cc(Cl)cc1Cl (centres unmarked),"SDHD/SDHC/SDHB (Sus scrofa, UniProt A5GZW8+D0VWV4+Q007T0)","enzyme activity, inhibitor, DCIP reduction",pig,"0.1 µM, added: DCIP 80 µM",,reaction velocity,0.0172 µM/s and 0.0164 µM/s and 0.0162 µM/s
O=C1NC(=O)c2c1c1cc(F)c[n+]3c1c1c2c2cc(O)ccc2[n]1[Ru-4]312([N]=C=S)[S+]3CC[S+]1CC[S+]2CC3 (centres unmarked),"GRK7 (Homo sapiens, UniProt Q8WTQ7)",enzyme activity,,"100 nM, human enzyme, added: 10 µM ATP",baseline: untreated,remaining activity,39%
CC(C)[C@H]1NC(=O)C[C@H]2/C=C/CCSSC[C@@H](NC1=O)C(=O)N[C@H](Cc1cccc3ccccc13)C(=O)NCC(=O)O2,"TSSK2 (Homo sapiens, UniProt Q96PF2)","enzyme activity, inhibitor",,10 µM,,inhibition,0.3%
Cc1cc(Nc2nc(C[C@@]3(C(=O)O)CCN(Cc4cccc(Cl)c4F)[C@H](C)C3)cc(C)c2F)[nH]n1,"ADRA2A (Homo sapiens, UniProt P08913)",agonist,,10 µM,,activation,-0.63%
Cc1ccc(NC(=O)CCc2cccc(NC3=CC(=O)N(C4CCC(=O)NC4=O)C3=O)c2)cc1Cl (centres unmarked),"Cereblon/Ikaros (Homo sapiens, UniProt Q13422+Q96SW2)","degrader, quantitative proteomics, item: protein abundance",Jurkat,"1 µM, 4 h",baseline: DMSO,log2 fold change,-2.4
CS(C)(=O)=Nc1ccc(-c2ccc(-c3nc4cc(O[C@@H]5CO[C@H]6[C@@H]5OC[C@H]6O)[nH]c4cc3F)cc2)cc1,KV channel,"binding, radioligand binding",,10 µM,,inhibition,-3%
CC(C)C[C@@H]1NC(=O)[C@H](C(C)C)NC(=O)[C@H](CCC(=O)O)NC(=O)CNC(=O)[C@H]([C@@H](C)O)NC(=O)[C@H](CCC(=O)O)NC(=O)[C@H](CCC(=O)O)NC(=O)[C@H](CC(=O)O)NC(=O)[C@H](C(C)C)NC(=O)[C@H]([C@@H](C)O)NC(=O)CNC(=O)[C@H](CC(=O)O)NC(=O)[C@@H]2CCCN2C1=O,KEAP1,"Keap1-Nrf2 binding, inhibitor, competitive FP",,"100 µM, 30 min, added: Nrf2 peptide probe",lower = stronger inhibition,fluorescence polarization,0.256 a.u. and 0.227 a.u.
O=C(Nc1ccncc1)c1ccccc1OS(=O)(=O)F,Uncharacterized hydrolase SAUSA300_2518,"enzyme activity, inhibitor, fluorogenic substrate",,0.1 µM,,remaining activity,86.6% and 95.1% and 84.6%
CC[C@@H](C)[C@@H]1CN([C@H](Cc2ccc3ccccc3c2)CN2CCC[C@H]2CN2CCNC[C@@H]2CO)CCN1CCCC1CCCC1,Oprm1,radioligand binding,rat brain membranes,"500 nM, pH 7.5, 25 °C, added: 0.87 nM [3H]DAMGO",,remaining binding,105 ± 9.3%
CC(C)[C@@H]1NC(=O)[C@H](CC(N)=O)NC(=O)CNC(=O)[C@H](CC(N)=O)NC(=O)[C@H](C)NC(=O)[C@H](CC(=O)O)NC(=O)[C@H]([C@@H](C)O)NC(=O)[C@H](CCC(=O)O)NC(=O)CNC(=O)[C@H]([C@@H](C)O)NC(=O)[C@H](CCC(=O)O)NC(=O)[C@H](CCC(=O)O)NC(=O)[C@H](CC(=O)O)NC1=O,KEAP1,"Keap1-Nrf2 binding, inhibitor, competitive FP",,"0.0015 µM, 30 min, added: Nrf2 peptide probe",lower = stronger inhibition,fluorescence polarization,1.04 a.u. and 1.09 a.u.
CCCCCCCCCC(=O)CC(=O)Nc1cccc(OC)c1,lasR,"reporter gene, agonist",Pseudomonas aeruginosa PAO-JP2,"100 µM, plasI-LVAgfp reporter",baseline: OdDHL at same concentration,agonist activity,1%
CCCCCCCCCC(=O)CC(=O)NC1CCSC1=O (centres unmarked),sdiA,,,,,Emax,74%
CCCCCCCCCC(=O)NC1CCCC1,lasR,"reporter gene, agonist",Pseudomonas aeruginosa PAO-JP2,"100 µM, plasI-LVAgfp reporter",baseline: OdDHL at same concentration,agonist activity,1%
COC(=O)[C@@H](NC(=O)c1nn(Cc2ccc(F)cc2)c2cc(OCCCCNC(=N)N)ccc12)C(C)(C)C,"CNR1 (Homo sapiens, UniProt P21554)",BRET,,concentration not given,"baseline: FUB over compound, fold lower activation",β-arrestin-2 recruitment,~3.5 fold
CCN(N=Cc1cnc2ccc(Br)cn12)S(=O)(=O)c1cc([N+](=O)[O-])ccc1C,"PIK3CA (Homo sapiens, UniProt P42336, K776A)",luminescence,,,baseline: mutant over wild type,IC50 fold change,8.8 and 9
COc1ccccc1-c1n[nH]c2nc(N[C@H]3CC[C@H](NS(=O)(=O)CC(C)C)CC3)ncc12,"cdc2-related kinase 12 (Leishmania donovani, UniProt A0A3S7WQK2)","competitor, bead pull-down competition",Leishmania donovani extract,2 µM,baseline: vehicle,remaining binding,14%
Oc1ccc(C[C@@H]2CN([C@@H](CC3CCCCC3)CN3CCC[C@H]3CN3CCNC[C@@H]3Cc3ccc4ccccc4c3)CCN2CCCC2CCCC2)cc1,Oprm1,radioligand binding,rat brain membranes,"500 nM, pH 7.5, 25 °C, added: 0.87 nM [3H]DAMGO",,remaining binding,111 ± 6.06%
CC(C)CC(O)(CC(C)C)c1cn(C(=O)N2CCCC2)nn1,"Phospholipase ABHD3 (Abhd3, Mus musculus, UniProt Q91ZH7)","probe labelling, inhibitor, item: Abhd3","mouse, brain","i.p., 0.8 mg/kg, 4 h, single peptide","baseline: treated over vehicle mice, lower = stronger inhibition",activity ratio-of-ratios,0.52 and 0.6 and 0.59 and 0.63 and 0.67
CCCCCCC(=O)N[C@H]1CCSC1=O,sdiA,,,,,Emax,97%
CCNC(=S)NN=Cc1c2ccccc2cc2ccccc12.Cc1ccc(C(C)C)cc1.[Cl-].[Cl-].[Ru+2],"Albumin (ALB, Homo sapiens, UniProt P02768)","binding, van't Hoff, Scatchard",,concentration not given,,entropy change (ΔS°),239 J/mol/K
CCCCCCCCCNC(=O)CC(=O)c1ccccc1,lasR,"reporter gene, agonist",Escherichia coli JLD271,"10 µM, pSC11 and pJN105L plasmids",baseline: OdDHL at same concentration,agonist activity,2%
C=CC(=O)NC[C@H](NC(=O)[C@H](CC1CCCCC1)NC(=O)[C@H](CCC(N)=O)NC(C)=O)C(=O)N[C@@H](CC(C)C)C(=O)N[C@@H](Cc1ccccc1)C(=O)O,"Beta sliding clamp (Escherichia coli, UniProt P0A988)","binding, isothermal titration calorimetry",,37 °C,,ΔG,-9.04 kcal/mol

# For quick reference, copied from above:
SMILES,target,test,system,conditions,scale,quantity,value
O=S(=O)(F)c1cccc2c1OCC2,Uncharacterized hydrolase SAUSA300_2518,"enzyme activity, inhibitor, fluorogenic substrate",,1 µM,,remaining activity,116%
COCC1CCCCN1C(=O)n1cc(C(O)(c2ccccc2)c2ccccc2)nn1 (centres unmarked),"Cytosolic acyl coenzyme A thioester hydrolase (Acot7, Mus musculus, UniProt Q91V12)","probe labelling, inhibitor, competitive ABPP-SILAC, item: Acot7",mouse T cells,"concentration not given, 4 h, single peptide","baseline: treated over DMSO cells, lower = stronger inhibition",SILAC activity ratio,1.49 and 1.31 and 1.48 and 1.47 and 1.59
CS(C)(=O)=Nc1ccc(-c2ccc(-c3nc4cc(O[C@@H]5CO[C@H]6[C@@H]5OC[C@H]6O)[nH]c4cc3F)cc2)cc1,KV channel,"binding, radioligand binding",,10 µM,,inhibition,-3%
